Published values pooled from the literature.
Each line is one published result; not all experiments were run side by side. Numbers after ± are the reported error.

Cc1cc(Nc2cc3ncccc3c(N[C@@H]3C[C@H]4CC[C@@H](C3)N4CCC#N)n2)n[nH]1  Cmax (Sprague-Dawley rat, male, plasma; oral, 30 mg/kg/day, last day of 13 weeks): 6.53 ng/mL
O=C(O)CNC(=O)c1ccccc1  free concentration ratio (human hemodialysis patients, plasma ultrafiltrate; pre-treatment; baseline: hemodialysis over normal subjects): 53
CC1=C2C[C@H]3[C@@H](CC[C@@H]4C[C@H](NS(C)(=O)=O)CC[C@@]43C)[C@@H]2CC[C@@]2(C1)O[C@@H]1C[C@H](C)CN[C@H]1[C@H]2C  AUC(0-24) (patients, plasma; oral, 60 mg single, day -7, cycle 1): 367 ng·h/mL
CCCC[C@H](NC(C)=O)C(=O)N[C@H]1CCC(=O)NC[C@@H](C(=O)N[C@@H](Cc2c[nH]c3ccccc23)C(N)=O)NC(=O)[C@H](CCCNC(=N)N)NC(=O)[C@@H](Cc2ccccc2)NC(=O)[C@H](Cc2c[nH]cn2)NC1=O  Tmax (beagle dog, female, plasma; subcutaneous, 1.5 mg/kg daily, day 14): 1 h
CN1CC[C@H](c2c(O)cc(O)c3c(=O)cc(/C=C/c4c(Cl)cccc4Cl)oc23)[C@H](O)C1  AUC(0-inf) (male BALB/c mouse, plasma; oral, 50 mg/kg): 2570 ng·h/mL
CCc1oc2ccccc2c1C(=O)c1cc(Br)c(O)c(Br)c1  microsomal CLint (metabolic stability; Sprague-Dawley rat, liver microsomes; 1 µM, pH 7.4): 43 µL/min/mg
CC1(C)S[C@@H]2[C@H](NC(=O)[C@H](N)c3ccccc3)C(=O)N2[C@H]1C(=O)O  EC20 (cytochrome c release, ELISA; BALB/cByJ female mouse liver mitochondria; 30 min; baseline: alamethicin maximal release): > 400 µM
O=C(c1nc2n(n1)[C@H](c1ccccc1)C[C@@H]2F)C1CC1  Vd/F (human, plasma; oral, 25 mg, single dose, fasted, healthy volunteers): 76.1 L
Cc1ccc(C(=O)c2cc(O)c(O)c([N+](=O)[O-])c2)cc1  EC20 (cytochrome c release, ELISA; BALB/cByJ female mouse liver mitochondria; 30 min; baseline: alamethicin maximal release): > 400 µM
C=C(C)[C@@H]1CC[C@]2(NCCN3CCS(=O)(=O)CC3)CC[C@]3(C)[C@H](CC[C@@H]4[C@@]5(C)CC=C(C6=CC[C@@](CF)(C(=O)O)CC6)C(C)(C)[C@@H]5CC[C@]43C)[C@@H]12  AUC(0-tau) (LC-MS/MS; HIV-1-infected treatment-naive adults, plasma; oral, 80 mg once daily, day 7, monotherapy): 11800 ng·h/mL
CC[C@H](C)[C@H](NC(=O)[C@H](CC(N)=O)NC(=O)[C@H](C)NC(=O)[C@H](CCCNC(=N)N)NC(=O)[C@H](CCCNC(=N)N)NC(=O)[C@H](CC(N)=O)NC(=O)[C@H](CCCNC(=N)N)NC(=O)[C@H](CCCNC(=N)N)NC(=O)[C@H](C)NC(=O)[C@@H](NC(=O)[C@H](CC(C)C)NC(=O)[C@@H](NC(=O)[C@@H](NC(=O)[C@H](CS)NC(=O)[C@H](CCCCN)NC(=O)[C@@H](N)CCCNC(=N)N)C(C)C)[C@@H](C)CC)C(C)C)C(=O)N[C@H](C(=O)N[C@H](C(=O)N[C@@H](CC(C)C)C(=O)N[C@@H](CS)C(=O)N[C@@H](CCCNC(=N)N)C(=O)O)[C@@H](C)CC)C(C)C  single disulfide form (LC-MS; PBS; 0.1 mg/mL): 50%
CCCCC1(CCCC)CN(c2ccccc2)c2cc(SC)c(OCC(=O)N[C@@H](C(=O)NCC(=O)O)c3ccccc3)cc2S(=O)(=O)C1  AUC(0-t) (human, plasma; oral, 15 mg, no breakfast): 8 ng·h/mL
C[C@@H](N)c1cc(Cl)ccc1Cn1c(=S)[nH]c(=O)c2[nH]ccc21  AUC(0-tau) (healthy Chinese volunteers, plasma; oral, 5 mg once daily, day 1): 0.239 µM·h
CC1=C(COc2ccc(C#N)cc2)C(=O)c2ccccc2C1=O  cathodic peak potential (cyclic voltammetry; DMSO; first wave, vs Ag/AgCl): -0.62 V
CCN1C(=O)CNc2ncc(-c3ccc(-c4nc[nH]n4)nc3C)nc21  AUC(0-24h) (human, plasma; oral, 25 mg once daily, multiple doses): 1570 ng·h/mL
CC12CCC(CC1)C(C)(C)O2  detoxification rate ratio (headspace GC; liver microsomes; 15 min, pH 7.4; baseline: pygmy rabbit over mountain cottontail): 4.6 fold
Cc1cc(-c2cc(OC(=O)c3ccccc3)ccc2Cl)cc2nnc(Nc3ccc(OCCN4CCCC4)cc3)nc12  Tmax (C57BL/6 mouse, sclera/choroid; topical, 1%): 1 h
CCOc1ccc2c(c1)C(C)=CC(C)(C)N2  residue concentration (LC-MS/MS; cattle, Holstein, subcutaneous fat; oral, 50 mg/kg complete feed, 42 days, highest value): 95.9 ng/g
COc1cc(CNC(=O)CCCC/C=C/C(C)C)ccc1O  EC20 (mitochondrial swelling; BALB/cByJ female mouse liver mitochondria; 30 min, added: succinate + rotenone; baseline: CaCl2 maximal swelling): > 200 µM
CN[C@H](CC(C)C)C(=O)N[C@H]1C(=O)N[C@@H](CC(N)=O)C(=O)N[C@H]2C(=O)N[C@H]3C(=O)N[C@H](C(=O)N[C@H](C(=O)O)c4cc(O)cc(O)c4-c4cc3ccc4O)[C@H](O)c3ccc(c(Cl)c3)Oc3cc2cc(c3O[C@@H]2O[C@H](CO)[C@@H](O)[C@H](O)[C@H]2O[C@H]2C[C@](C)(N)[C@H](O)[C@H](C)O2)Oc2ccc(cc2Cl)[C@H]1O  AUC(0-last) (microdialysis; Danish Landrace pigs, cortical bone; intravenous, 1000 mg, 100 min infusion, added: meropenem): 22600 ng·h/mL
CC(=O)Nc1ccc(O)cc1  EC20 (mitochondrial swelling; BALB/cByJ female mouse liver mitochondria; 30 min, added: succinate + rotenone; baseline: CaCl2 maximal swelling): > 200 µM
CC(C)NCC1CCc2cc(CO)c([N+](=O)[O-])cc2N1 (stereo not shown)  intrinsic clearance (mouse liver microsomes; 1 µM, pH 7.4, 1.0 mg protein/mL): 100 µL/min/mg
Nc1nc2c(ccc3ccccc32)s1  concentration (mouse, plasma; intraperitoneal, 10 mg/kg, 4 h): 1400 nM
CN1C(C(=O)Nc2ccccn2)=C(O)c2ccccc2S1(=O)=O  EC20 (cytochrome c release, ELISA; BALB/cByJ female mouse liver mitochondria; 30 min; baseline: alamethicin maximal release): > 200 µM
Cn1c(-c2ccc(C(N)=O)cc2F)nnc1C(C)(C)Oc1c(F)cc(Cl)cc1F  AUC(0-tau) median (healthy young Japanese subjects, plasma; oral, 10 mg once daily, day 18, 14 days dosing): 1760 ng·h/mL
CC1=NS(=O)(=O)c2cc(Cl)ccc2N1  EC20 (mitochondrial swelling; BALB/cByJ female mouse liver mitochondria; 30 min, added: succinate + rotenone; baseline: CaCl2 maximal swelling): > 200 µM
COc1cccc(-c2ccc(NC(=O)C3=C(C(=O)O)CCC3)c(F)c2)c1  Vd/F (male human, plasma; oral, 30 mg, multiple doses, once daily): 13.1 L
COc1cc2c(Nc3ccc(Br)cc3F)ncnc2cc1OCC1CCN(C)CC1  elimination rate constant (male FVB mice, plasma; intravenous, 5 mg/kg): 0.43 h⁻¹
Cc1c2oc3c(C)ccc(C(=O)N[C@@H]4C(=O)N[C@H](C(C)C)C(=O)N5CCC[C@H]5C(=O)N(C)CC(=O)N(C)[C@@H](C(C)C)C(=O)O[C@@H]4C)c3nc-2c(C(=O)N[C@@H]2C(=O)N[C@H](C(C)C)C(=O)N3CCC[C@H]3C(=O)N(C)CC(=O)N(C)[C@@H](C(C)C)C(=O)O[C@@H]2C)c(N)c1=O  Tmax (mouse, Abcc2−/− knockout, FVB background, liver; intravenous, 0.5 mg/kg): 0.5 h
COc1ccc(-c2coc3cc(O)ccc3c2=O)cc1O  accuracy (extracted rat plasma, autosampler; 2.25 ng/mL, 24 h, 4 °C, post-preparative stability, low QC): 97.6 % nominal
CS(=O)(=O)Nc1ccc(C(=O)O[C@@H](Cc2c(Cl)c[n+]([O-])cc2Cl)c2ccc(OC(F)F)c(OCC3CC3)c2)cc1OCC1CC1  tmax (human, plasma; inhaled, 2000 µg single dose, single-dose dry powder inhaler): 2 h
COc1cc(CCC(=O)O)ccc1O[C@@H]1O[C@H](C(=O)O)[C@@H](O)[C@H](O)[C@H]1O  mean concentration (human, fasted baseline, cerebrospinal fluid): 1.7 nM
CCCC[C@@H]1NC(=O)[C@@H](NC(=O)[C@H](CCC(=O)O)NC(=O)CNC(=O)CN2CCN(CC(=O)O)CCN(CC(=O)O)CCN(CC(=O)O)CC2)CCCCNC(=O)C[C@@H](C(N)=O)NC(=O)[C@H](C(C)C)NC(=O)[C@@H]2CCCN2C(=O)[C@H](CCCNC(=N)N)NC(=O)CNC(=O)[C@H](Cc2c[nH]c3ccccc23)NC(=O)[C@H](CCCNC(=N)N)NC(=O)[C@@H](Cc2ccccc2)NC(=O)[C@H](Cc2c[nH]cn2)NC(=O)[C@H](CCC(=O)O)NC1=O [indium-111 labelled]  tissue uptake (normal C57 mice, bone; intravenous, 0.037 MBq, 4 h): 0.06 ± 0.04 %ID/g
COc1cccc(N2CCN(C3=Nc4c(F)cccc4[C@H](CC(=O)O)N3c3cc(C(F)(F)F)ccc3OC)CC2)c1  MRT (UHPLC-MS/MS; healthy women, plasma; intravenous infusion, 720 mg single dose, 60 min infusion, HPβCD formulation): 6.72 ± 1.07 h
CNCc1ccc(-c2[nH]c3cc(F)cc4c3c2CCNC4=O)cc1  half-life (human, plasma; oral, 600 mg twice daily, steady state, median): 10.9 h
CCOc1ccc(Cc2cc([C@@H]3S[C@H](CO)[C@@H](O)[C@H](O)[C@H]3O)c(OC)cc2C)cc1  AUC(0-last) (Japanese type 2 diabetes patients, plasma; oral, 5 mg single dose, eGFR below 30 mL/min/1.73 m^2): 2350 ± 601 ng·h/mL
CS(=O)(=O)n1cc2c(n1)CN([C@H]1CO[C@H](c3cc(F)ccc3F)[C@@H](N)C1)C2  AUC(0-24h) (healthy male human, plasma; oral, 100 mg, fasted, geometric mean): 34.5 µM·h

A few entries again:
CC1=C2C[C@H]3[C@@H](CC[C@@H]4C[C@H](NS(C)(=O)=O)CC[C@@]43C)[C@@H]2CC[C@@]2(C1)O[C@@H]1C[C@H](C)CN[C@H]1[C@H]2C  AUC(0-24) (patients, plasma; oral, 60 mg single, day -7, cycle 1): 367 ng·h/mL
O=C(c1nc2n(n1)[C@H](c1ccccc1)C[C@@H]2F)C1CC1  Vd/F (human, plasma; oral, 25 mg, single dose, fasted, healthy volunteers): 76.1 L
COc1cccc(N2CCN(C3=Nc4c(F)cccc4[C@H](CC(=O)O)N3c3cc(C(F)(F)F)ccc3OC)CC2)c1  MRT (UHPLC-MS/MS; healthy women, plasma; intravenous infusion, 720 mg single dose, 60 min infusion, HPβCD formulation): 6.72 ± 1.07 h
